Results gathered from unrelated publications.
Every numbered part comes from another study and shows a few of its results, in no order. Positions count from the first letter of the parent shown.

Series 1
Substance: PhoQ, residues 284 288 289 292 302 303 TTSMTC
Technique: Sort-seq
Item: YFP reporter
Sample: E. coli
Notes: PhoQ-PhoP variant library
With: 10 µM Mg2+
Relative to: high Mg2+ state
Reading: higher = stronger signaling
target | fold induction
PhoP, residues 12 14 15 18 19 HHYTI (Escherichia coli, UniProt P23836) | 16.7
PhoP, residues 12 14 15 18 19 SFCSL (Escherichia coli, UniProt P23836) | 18.2
PhoP, residues 12 14 15 18 19 AYFRS (Escherichia coli, UniProt P23836) | 1.3

Series 2
Target: Max-binding protein MNT, bHLH-zipper, MAX partner unstated (MNT, Homo sapiens, UniProt Q99583, residues 220-300)
Technique: protein-binding microarray
Molecule type: double-stranded DNA, one strand shown
Sample: in vitro
Concentration: not given
Notes: k-mer, scored over probes, only values ≥0.25
Reading: higher = stronger binding
Target sequence (chain): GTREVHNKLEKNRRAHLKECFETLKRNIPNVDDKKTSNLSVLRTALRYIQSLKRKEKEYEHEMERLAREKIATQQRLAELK
Strand | E-score
CCCTCCCA | 0.316
CATGGTAG | 0.345
ATTCATGC | 0.282
GACATGCC | 0.363
ACGCGGGA | 0.356
ACGCTGCT | 0.252
CCCCTCAC | 0.272
ACGTTTTG | 0.255
GCATGGCC | 0.401
ACATGTTA | 0.336
AGCGTGTC | 0.366
ACGCATGC | 0.444
CGGCATGC | 0.388
GGCCCCAC | 0.261
CACGTTCA | 0.315
AACATGTG | 0.48
ATGTGCGG | 0.385

Series 3
Target: ABI1, truncated, D143A, DHFR fusion (Arabidopsis thaliana)
Technique: DHFR PCA, deep sequencing
Sample: yeast
Notes: methotrexate growth selection, single substitutions
With: (+)-ABA 58 µM
Relative to: wild-type fitted maximum
Reading: higher = stronger binding
Starting sequence: PYL1, truncated, DHFR fusion (Arabidopsis thaliana); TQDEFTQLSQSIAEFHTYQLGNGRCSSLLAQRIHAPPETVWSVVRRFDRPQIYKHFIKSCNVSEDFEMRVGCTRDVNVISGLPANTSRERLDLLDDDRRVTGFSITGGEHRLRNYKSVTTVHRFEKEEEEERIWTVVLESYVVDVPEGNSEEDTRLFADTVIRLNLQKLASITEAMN
Change | relative binding score [%]
L93R | 88.7
D97S | 91.1
T119E | -6.83
L82D | -3.12
S11G | 79
A158Q | 5.12
Q51L | 23.2
I172D | 6.15
I133W | 84
L138E | -4.65
L169S | -1.93
E174Y | 52.2
V137H | -1.59
V118W | 15

Series 4
Target: Histone acetyltransferase KAT6A, winged helix 1, GST fusion (KAT6A, Homo sapiens, UniProt Q92794, residues 1-85)
Technique: protein binding microarray
Molecule type: double-stranded DNA, one strand shown
Sample: in vitro
Concentration: not given
Notes: 8-mer, flanks averaged, mean of 2 arrays, mostly near background
Relative to: not given
Reading: higher = stronger binding
Construct (chain): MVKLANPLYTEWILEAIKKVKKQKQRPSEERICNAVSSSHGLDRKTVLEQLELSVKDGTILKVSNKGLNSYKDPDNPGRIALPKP
Strand | E-score
GCTGTTTA | -0.144
GCCGCGAA | 0.398
GCAGGTTA | 0.0967
CTCCCATC | -0.124
AGCTCGGG | -0.00104
CGTGGTGA | 0.043
GGTTTATA | -0.00254
CGTCAGTC | 0.0759
CCTCGAAC | -0.145
CACATCTA | -0.125
ACCTATGC | 0.0869
CAATGAGC | -0.11
CCTTGTAG | -0.152
GGTTAAAC | 0.0279
AGAGACTA | 0.00518
CACCGTAC | 0.183
AAGGCTTC | -0.096
GGGAATCA | -0.0658
AGGAACTC | -0.11
CCAGCCCG | 0.122
ACGGAAGT | 0.266
TCAAATCA | -0.288

Series 5
Target: CCNB1, cyclin fold, Cln2 fusion (human)
Technique: yeast growth competition, sequencing
Sample: yeast
Notes: weak parent motif
Relative to: not given
Reading: higher = stronger binding
Starting sequence: WEE1 docking peptide (human); HKTFRKLRLFDTP
Change | normalised enrichment score
HKTFRKLRLFDNP [T12N] | 1.16
HKVFRKLRLFDTP [T3V] | 1.81
TKTFRKLRLFDTP [H1T] | 1.26
HRTFRKLRLFDTP [K2R] | 0.922
HKTFRKLHLFDTP [R8H] | 1.15
HKTFRKLRLMDTP [F10M] | 0.49
HKTFRKYRLFDTP [L7Y] | 1.16
HKTFRKLRKFDTP [L9K] | 0.854
HKTFRKLRLFMTP [D11M] | 1.25
HTTFRKLRLFDTP [K2T] | 1.42
HKTFRVLRLFDTP [K6V] | 0.617
HKRFRKLRLFDTP [T3R] | 0.627
HKTFPKLRLFDTP [R5P] | -0.246
HKTFRKLRLFDTM [P13M] | 1.67
HKTFRKLRLFPTP [D11P] | 0.914
HKTFRKLRLRDTP [F10R] | 1.15
GKTFRKLRLFDTP [H1G] | 0.364
HKTFRKLRLFVTP [D11V] | 0.611
HKTSRKLRLFDTP [F4S] | 0.736
HKTFRKKRLFDTP [L7K] | 0.721
HKTFRKLRLFDFP [T12F] | 0.818
HKTFRKLRLFDEP [T12E] | 0.572
HKTFRKQRLFDTP [L7Q] | 1.38
HKTFSKLRLFDTP [R5S] | 0.548
HKKFRKLRLFDTP [T3K] | -3.91

Series 6
Target: Sal-like protein 4, full length isoform A (SALL4, Homo sapiens, UniProt Q9UJQ4, residues 1-1053)
Chain of UniProt Q9UJQ4 (whole entry, looked up): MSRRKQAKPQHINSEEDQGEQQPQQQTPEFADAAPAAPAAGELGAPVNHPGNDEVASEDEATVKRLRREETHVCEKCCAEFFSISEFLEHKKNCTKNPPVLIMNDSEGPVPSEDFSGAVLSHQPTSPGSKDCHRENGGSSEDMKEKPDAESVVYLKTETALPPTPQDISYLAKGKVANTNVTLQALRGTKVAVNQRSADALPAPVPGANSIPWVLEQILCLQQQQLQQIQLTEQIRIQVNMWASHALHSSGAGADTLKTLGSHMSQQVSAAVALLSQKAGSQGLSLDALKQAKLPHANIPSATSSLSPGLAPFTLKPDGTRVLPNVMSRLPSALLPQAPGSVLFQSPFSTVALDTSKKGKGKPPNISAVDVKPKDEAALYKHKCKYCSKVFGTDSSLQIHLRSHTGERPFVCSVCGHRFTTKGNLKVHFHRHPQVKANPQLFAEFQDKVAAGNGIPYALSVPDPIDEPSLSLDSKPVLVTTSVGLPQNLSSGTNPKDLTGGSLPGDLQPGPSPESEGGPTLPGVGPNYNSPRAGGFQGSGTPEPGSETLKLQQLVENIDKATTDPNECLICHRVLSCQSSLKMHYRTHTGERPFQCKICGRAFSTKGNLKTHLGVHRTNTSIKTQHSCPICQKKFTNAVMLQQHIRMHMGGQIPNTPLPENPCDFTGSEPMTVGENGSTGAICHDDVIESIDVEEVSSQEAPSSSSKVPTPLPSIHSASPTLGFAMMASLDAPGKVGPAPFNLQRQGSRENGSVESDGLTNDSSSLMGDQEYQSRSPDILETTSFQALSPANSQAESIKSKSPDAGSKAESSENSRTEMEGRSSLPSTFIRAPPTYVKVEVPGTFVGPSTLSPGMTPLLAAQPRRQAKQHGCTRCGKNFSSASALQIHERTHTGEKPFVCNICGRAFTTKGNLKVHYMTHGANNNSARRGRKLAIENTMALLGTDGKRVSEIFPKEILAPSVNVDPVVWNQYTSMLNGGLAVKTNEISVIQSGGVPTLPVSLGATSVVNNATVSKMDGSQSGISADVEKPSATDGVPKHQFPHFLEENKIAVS
Technique: universal PBM
Molecule type: double-stranded DNA, one strand shown
Sample: in vitro
Concentration: 600 nM
Notes: 8-mer, flanks averaged, mean of replicates
Reading: higher = stronger binding
Strand | E-score
ACAATAAA | 0.345
CGCCGCGC | -0.359
CTACATAA | 0.127
AACCATGT | 0.0523
CAAGGCGA | -0.215
CGTCTTGC | -0.0682
AAAGTTAA | 0.227
TCAACTCA | 0.0448
AATGCTAG | 0.0342
GAGCTTAA | 0.0118
CAGGAGTA | -0.0789
CTTTATAC | 0.217
AGGATCCG | -0.333
ATGATCCC | 0.00518
ATGTCCCG | -0.158
ATTGAAAT | 0.354
CGGGAAGC | -0.142
CCCGGTCA | -0.243
AGAACTCT | -0.0935
AAACCAAA | 0.19
GCGTACCC | -0.214
ATTGGAGA | 0.2

Series 7
Target: CEP164, C-terminal peptide (human)
Technique: DHFR complementation, deep sequencing
Sample: yeast
Notes: single substitutions, model-inferred values
Relative to: wild type
Reading: higher = weaker binding
Starting sequence: PDZK1, PDZ domain 2 (human); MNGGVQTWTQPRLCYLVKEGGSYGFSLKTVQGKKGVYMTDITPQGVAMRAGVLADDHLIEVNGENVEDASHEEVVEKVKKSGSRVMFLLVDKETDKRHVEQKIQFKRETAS; partner HNRVKVYRF
Change | binding free energy change [kcal/mol]
G45P | 1.19
T39L | 0.303
G82C | 0.788
K34W | 0.305
G21H | 0.0705
P11Q | 0.214
E72T | 0.53
K28Y | -0.439
L88C | -0.0255
K34C | 0.372
E76S | 0.0829
G82L | 0.641
V17P | 1.14
V99L | -0.118
V61Q | 0.98
M38Q | 1.37
T109Q | -0.123
L27S | 0.469
E108V | -0.174
G24R | 1.39

Excerpt of the above (series 2):
Strand | E-score
GACATGCC | 0.363
ACGCGGGA | 0.356
ACGCTGCT | 0.252
CCCCTCAC | 0.272
ACGTTTTG | 0.255
GCATGGCC | 0.401
ACATGTTA | 0.336
AGCGTGTC | 0.366
ACGCATGC | 0.444
CGGCATGC | 0.388
GGCCCCAC | 0.261
CACGTTCA | 0.315
AACATGTG | 0.48
ATGTGCGG | 0.385
